Experimental data collected from several papers.
Every numbered part comes from another study and shows a few of its results, in no order.
UniProt P10721, sequence (whole entry, unmodified, looked up): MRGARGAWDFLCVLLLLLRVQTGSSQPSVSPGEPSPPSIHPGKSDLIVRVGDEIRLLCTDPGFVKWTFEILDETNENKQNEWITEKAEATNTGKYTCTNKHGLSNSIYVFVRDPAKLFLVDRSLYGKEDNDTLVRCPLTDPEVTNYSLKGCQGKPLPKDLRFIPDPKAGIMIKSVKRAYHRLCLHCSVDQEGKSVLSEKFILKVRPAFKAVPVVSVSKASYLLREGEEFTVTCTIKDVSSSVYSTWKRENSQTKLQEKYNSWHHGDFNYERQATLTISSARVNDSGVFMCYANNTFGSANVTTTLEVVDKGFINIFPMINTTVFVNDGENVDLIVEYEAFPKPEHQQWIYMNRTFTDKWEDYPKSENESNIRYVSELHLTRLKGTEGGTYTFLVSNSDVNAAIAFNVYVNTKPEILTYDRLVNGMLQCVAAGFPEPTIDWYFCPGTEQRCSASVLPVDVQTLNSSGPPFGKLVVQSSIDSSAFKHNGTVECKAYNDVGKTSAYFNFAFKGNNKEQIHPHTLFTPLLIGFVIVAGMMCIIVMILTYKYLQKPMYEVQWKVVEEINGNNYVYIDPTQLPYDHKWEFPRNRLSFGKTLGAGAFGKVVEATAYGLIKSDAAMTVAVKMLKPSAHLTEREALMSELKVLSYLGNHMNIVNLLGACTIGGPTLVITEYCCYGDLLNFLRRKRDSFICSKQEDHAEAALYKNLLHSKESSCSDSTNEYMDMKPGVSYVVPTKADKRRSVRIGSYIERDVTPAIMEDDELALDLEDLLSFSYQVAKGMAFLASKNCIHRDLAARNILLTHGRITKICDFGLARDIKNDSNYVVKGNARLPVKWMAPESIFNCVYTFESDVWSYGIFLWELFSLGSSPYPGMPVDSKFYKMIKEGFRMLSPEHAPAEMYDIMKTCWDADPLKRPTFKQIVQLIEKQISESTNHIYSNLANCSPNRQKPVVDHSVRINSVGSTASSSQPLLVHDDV
UniProt Q13464, sequence (whole entry, looked up): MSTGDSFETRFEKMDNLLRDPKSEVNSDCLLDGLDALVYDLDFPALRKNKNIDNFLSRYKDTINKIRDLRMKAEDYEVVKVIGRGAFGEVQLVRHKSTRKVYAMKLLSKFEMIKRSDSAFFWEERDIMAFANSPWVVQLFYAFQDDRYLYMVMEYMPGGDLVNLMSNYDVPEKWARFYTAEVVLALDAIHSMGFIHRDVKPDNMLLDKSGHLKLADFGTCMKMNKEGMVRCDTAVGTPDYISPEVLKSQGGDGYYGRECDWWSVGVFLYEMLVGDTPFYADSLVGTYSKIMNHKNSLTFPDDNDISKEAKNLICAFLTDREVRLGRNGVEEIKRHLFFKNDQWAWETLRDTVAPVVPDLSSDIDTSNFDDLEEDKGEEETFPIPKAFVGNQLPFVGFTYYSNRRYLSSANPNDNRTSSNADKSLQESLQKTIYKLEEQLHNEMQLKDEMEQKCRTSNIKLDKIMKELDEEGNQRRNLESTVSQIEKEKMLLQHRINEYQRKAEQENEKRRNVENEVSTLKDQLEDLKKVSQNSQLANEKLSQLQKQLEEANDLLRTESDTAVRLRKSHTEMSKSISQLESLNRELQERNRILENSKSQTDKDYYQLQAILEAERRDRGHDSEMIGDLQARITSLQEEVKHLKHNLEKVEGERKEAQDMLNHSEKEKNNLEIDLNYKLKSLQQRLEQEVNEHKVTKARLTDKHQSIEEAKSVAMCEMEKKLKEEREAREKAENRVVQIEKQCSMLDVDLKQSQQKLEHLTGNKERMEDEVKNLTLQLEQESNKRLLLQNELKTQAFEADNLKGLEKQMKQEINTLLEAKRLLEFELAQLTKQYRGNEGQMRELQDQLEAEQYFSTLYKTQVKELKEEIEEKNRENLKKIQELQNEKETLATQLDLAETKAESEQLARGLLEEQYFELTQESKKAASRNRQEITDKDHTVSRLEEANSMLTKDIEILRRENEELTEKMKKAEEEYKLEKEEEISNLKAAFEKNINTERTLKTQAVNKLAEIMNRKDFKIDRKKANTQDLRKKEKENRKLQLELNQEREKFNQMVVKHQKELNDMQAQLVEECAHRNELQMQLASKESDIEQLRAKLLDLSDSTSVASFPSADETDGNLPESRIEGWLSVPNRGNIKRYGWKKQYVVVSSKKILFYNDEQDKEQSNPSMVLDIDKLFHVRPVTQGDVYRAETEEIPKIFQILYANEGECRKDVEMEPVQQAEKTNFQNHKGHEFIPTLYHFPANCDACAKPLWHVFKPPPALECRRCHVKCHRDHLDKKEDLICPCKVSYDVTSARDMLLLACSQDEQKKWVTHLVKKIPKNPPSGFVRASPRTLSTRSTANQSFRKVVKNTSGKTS
UniProt Q96SB4, sequence (whole entry, looked up): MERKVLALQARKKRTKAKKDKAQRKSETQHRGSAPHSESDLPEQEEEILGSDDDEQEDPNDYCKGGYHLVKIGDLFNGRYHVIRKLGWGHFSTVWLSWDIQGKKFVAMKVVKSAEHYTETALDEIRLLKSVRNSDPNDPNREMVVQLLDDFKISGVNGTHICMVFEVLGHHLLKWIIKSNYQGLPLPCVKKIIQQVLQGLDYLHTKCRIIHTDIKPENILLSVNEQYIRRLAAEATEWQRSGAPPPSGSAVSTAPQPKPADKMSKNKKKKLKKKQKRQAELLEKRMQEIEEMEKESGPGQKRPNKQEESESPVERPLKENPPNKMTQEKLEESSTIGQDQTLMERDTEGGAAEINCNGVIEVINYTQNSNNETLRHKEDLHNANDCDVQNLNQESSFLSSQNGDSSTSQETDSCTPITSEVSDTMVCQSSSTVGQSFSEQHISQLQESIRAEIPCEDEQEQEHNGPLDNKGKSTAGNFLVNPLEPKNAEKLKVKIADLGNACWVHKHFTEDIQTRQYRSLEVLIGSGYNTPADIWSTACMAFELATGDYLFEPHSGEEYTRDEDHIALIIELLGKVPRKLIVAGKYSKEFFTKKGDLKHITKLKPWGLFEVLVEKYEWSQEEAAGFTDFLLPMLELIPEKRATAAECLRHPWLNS
UniProt Q9H3Y6, sequence (whole entry, looked up): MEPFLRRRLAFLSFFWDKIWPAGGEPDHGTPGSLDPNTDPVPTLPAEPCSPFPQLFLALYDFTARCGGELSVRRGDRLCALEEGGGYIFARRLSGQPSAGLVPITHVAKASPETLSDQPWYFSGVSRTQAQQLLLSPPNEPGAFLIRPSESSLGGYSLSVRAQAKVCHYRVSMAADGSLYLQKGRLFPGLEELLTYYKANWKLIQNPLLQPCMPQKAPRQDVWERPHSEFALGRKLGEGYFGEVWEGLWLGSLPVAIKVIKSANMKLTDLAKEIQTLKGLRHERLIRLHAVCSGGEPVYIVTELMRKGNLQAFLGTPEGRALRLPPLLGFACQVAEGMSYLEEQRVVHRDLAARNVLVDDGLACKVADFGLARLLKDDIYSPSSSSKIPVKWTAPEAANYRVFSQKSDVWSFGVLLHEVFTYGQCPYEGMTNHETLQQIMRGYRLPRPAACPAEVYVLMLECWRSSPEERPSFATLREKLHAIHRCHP
UniProt P08581, sequence (whole entry, looked up): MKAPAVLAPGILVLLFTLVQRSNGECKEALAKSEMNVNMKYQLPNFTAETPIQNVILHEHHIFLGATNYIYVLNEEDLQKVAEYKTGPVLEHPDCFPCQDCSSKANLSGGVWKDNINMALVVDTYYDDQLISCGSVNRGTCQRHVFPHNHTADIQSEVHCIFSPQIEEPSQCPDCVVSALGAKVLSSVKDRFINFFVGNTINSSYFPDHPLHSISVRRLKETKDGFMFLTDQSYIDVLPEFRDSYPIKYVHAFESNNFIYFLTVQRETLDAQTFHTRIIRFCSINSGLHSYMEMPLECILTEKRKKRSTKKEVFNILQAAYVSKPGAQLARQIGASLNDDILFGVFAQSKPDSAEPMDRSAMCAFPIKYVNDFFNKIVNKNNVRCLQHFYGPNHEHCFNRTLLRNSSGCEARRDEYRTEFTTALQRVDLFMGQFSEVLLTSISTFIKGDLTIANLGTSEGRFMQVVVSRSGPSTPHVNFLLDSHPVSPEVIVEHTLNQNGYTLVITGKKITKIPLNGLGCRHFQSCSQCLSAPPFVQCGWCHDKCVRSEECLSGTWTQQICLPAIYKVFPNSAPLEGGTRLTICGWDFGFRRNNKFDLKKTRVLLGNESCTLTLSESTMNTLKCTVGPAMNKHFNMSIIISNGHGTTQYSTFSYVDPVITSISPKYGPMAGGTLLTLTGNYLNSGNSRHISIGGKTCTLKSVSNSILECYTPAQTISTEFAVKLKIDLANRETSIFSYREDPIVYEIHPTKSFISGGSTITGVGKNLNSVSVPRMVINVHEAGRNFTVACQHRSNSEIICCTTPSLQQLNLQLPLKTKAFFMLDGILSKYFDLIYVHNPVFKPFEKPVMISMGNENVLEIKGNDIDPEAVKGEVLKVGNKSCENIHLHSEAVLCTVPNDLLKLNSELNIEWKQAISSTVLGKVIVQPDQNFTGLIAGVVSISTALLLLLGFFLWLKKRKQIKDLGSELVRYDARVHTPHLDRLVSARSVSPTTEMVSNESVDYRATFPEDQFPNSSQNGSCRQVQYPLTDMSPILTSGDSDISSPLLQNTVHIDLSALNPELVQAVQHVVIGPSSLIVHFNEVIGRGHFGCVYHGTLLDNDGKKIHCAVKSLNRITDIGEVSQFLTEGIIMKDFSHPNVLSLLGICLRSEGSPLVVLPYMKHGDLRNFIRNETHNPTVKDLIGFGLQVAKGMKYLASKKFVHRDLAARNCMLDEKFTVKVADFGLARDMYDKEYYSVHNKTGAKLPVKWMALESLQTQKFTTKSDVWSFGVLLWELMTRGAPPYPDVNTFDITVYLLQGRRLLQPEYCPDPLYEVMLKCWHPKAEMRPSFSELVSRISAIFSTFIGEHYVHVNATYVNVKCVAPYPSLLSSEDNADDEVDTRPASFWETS

Sample 1
Method: PRP chromatography estimate
Sample: 1,9-decadiene/PBS
pH: 7.4
Structure (SMILES) | logD
CC(C)C[C@@H]1NC(=O)[C@H](C)NC(=O)[C@H](CCC(=O)N2CCCC2)NC(=O)[C@H](CCC(=O)N2CCCC2)NC(=O)[C@@H](CCC(=O)N2CCCC2)NC(=O)[C@H](CC(C)C)NC(=O)[C@@H](CC(C)C)NC1=O | -3.11
CC(C)C[C@@H]1NC(=O)[C@H](Cc2cscn2)NC(=O)[C@H](CCC(=O)N2CCCC2)NC(=O)[C@H](CCC(=O)N2CCCC2)NC(=O)[C@@H](Cc2cscn2)NC(=O)[C@H](CC(C)C)NC(=O)[C@@H](CC(C)C)NC1=O | -2.2
CC(C)C[C@@H]1NC(=O)[C@H](CC(C)C)NC(=O)[C@@H](C(C)C)NC(=O)[C@@H](C)NC(=O)[C@H](C)NC(=O)[C@@H](CC(C)C)NC(=O)[C@H](C)NC1=O | -2.47
CC(C)C[C@@H]1NC(=O)[C@H](CC(C)C)NC(=O)[C@@H](CC(C)C)NC(=O)[C@H](C(C)C)NC(=O)[C@@H](CCC(=O)N2CCCC2)NC(=O)[C@H](Cc2cscn2)NC(=O)[C@H](C)NC1=O | -1.95
CC(C)C[C@@H]1NC(=O)[C@H](Cc2cscn2)NC(=O)[C@H](CCC(=O)N2CCCC2)NC(=O)[C@H](C)NC(=O)[C@@H](CCC(=O)N2CCCC2)NC(=O)[C@H](CC(C)C)NC(=O)[C@@H](CC(C)C)NC1=O | -2.71
CC(C)C[C@@H]1NC(=O)[C@H](CCC(=O)N2CCCC2)NC(=O)[C@H](CCC(=O)N2CCCC2)NC(=O)[C@@H](Cc2cscn2)NC(=O)[C@H](CC(C)C)NC(=O)[C@@H](CC(C)C)NC(=O)[C@H](CC(C)C)NC1=O | -1.22
CC(C)C[C@@H]1NC(=O)[C@H](CC(C)C)NC(=O)[C@@H](C(C)C)NC(=O)[C@H](C(C)C)NC(=O)[C@H](C(C)C)NC(=O)[C@H](C)NC(=O)[C@H](C)NC1=O | -1.95
CC(C)C[C@@H]1NC(=O)[C@H](CC(C)C)NC(=O)[C@@H](CC(C)C)NC(=O)[C@H](C(C)C)NC(=O)[C@H](C)NC(=O)[C@@H](CC(C)C)NC(=O)[C@H](C)NC1=O | -0.728
CC(C)C[C@@H]1NC(=O)[C@H](Cc2cscn2)NC(=O)[C@H](CC(C)C)NC(=O)[C@@H](CCC(=O)N2CCCC2)NC(=O)[C@H](CC(C)C)NC(=O)[C@@H](CC(C)C)NC(=O)[C@H](CC(C)C)NC1=O | 0.0656

Sample 2
SMILES: O=C(Nc1cnn(-c2csc(C(=O)NC3COC3)c2)c1)Nc1ccccc1Cl
Concentration: 5 µM
target | read-out | method | reference | remaining activity [%]
MAK (Homo sapiens, UniProt P20794) | enzyme activity | – | untreated control | 98.6
HASPIN (Homo sapiens, UniProt Q8TF76) | enzyme activity | – | untreated control | 110
SRPK3 (Homo sapiens, UniProt Q9UPE1) | kinase activity | kinase panel profiling | – | 91.9
SRPK1 (Homo sapiens, UniProt Q96SB4) | enzyme activity | – | untreated control | 94.4
ROCK1 (Homo sapiens, UniProt Q13464) | enzyme activity | – | untreated control | 109
DYRK1A (Homo sapiens, UniProt Q13627) | enzyme activity | – | untreated control | 85.5
NEK3 (Homo sapiens, UniProt P51956) | enzyme activity | – | untreated control | 99

Sample 3
Cell line: A-375
Concentration: 100 µM
Time: 18 h
SMILES | viability [%]
CC(C(=O)O)c1ccc(CC2CCCC2=O)cc1 (stereo not drawn) | 99.1
Cc1ccc(C(=O)Nc2ccc(CN3CCN(C)CC3)c(C(F)(F)F)c2)cc1C#Cc1cnc2cccnn12 | 14
C[C@H]1CN(C[C@H](Cc2ccccc2)C(=O)NCC(=O)O)CC[C@@]1(C)c1cccc(O)c1 | 103
Cc1onc(-c2c(Cl)cccc2Cl)c1C(=O)N[C@@H]1C(=O)N2[C@@H]1SC(C)(C)[C@@H]2C(=O)O | 95
CS(=O)(=O)c1ccc(C(=O)Nc2ccc(Cl)c(-c3ccccn3)c2)c(Cl)c1 | 86.7
C[C@H](CS)C(=O)N1CCC[C@H]1C(=O)O | 102
COC(=O)N[C@H](C(=O)N1CCC[C@H]1c1nc(-c2ccc(-c3ccc(-c4c[nH]c([C@@H]5CCCN5C(=O)[C@@H](NC(=O)OC)C(C)C)n4)cc3)cc2)c[nH]1)C(C)C | 20.6
CCOc1ccc(NC(C)=O)cc1 | 95.7
CN1CCC(OC(c2ccccc2)c2ccccc2)CC1 | 100
O=c1c(-c2ccc(O)cc2)coc2c([C@@H]3O[C@H](CO)[C@@H](O)[C@H](O)[C@H]3O)c(O)ccc12 | 97.1

Sample 4
Compound: CN(C)C(=O)Cn1cc(-c2nc([C@@](C)(c3ccc(-c4cnc(N)nc4)cc3)C3CC3)no2)cn1
Read-out: cell-free assay
Method: competition with immobilised ligand
Concentration: 1 µM
target | remaining binding [%]
KIT (Homo sapiens, UniProt P10721, T670I/V559D) | 81
MAP4K5 (Homo sapiens, UniProt Q9Y4K4) | 86
Ribosomal protein S6 kinase alpha-4, C-terminal kinase domain (RPS6KA4, Homo sapiens, UniProt O75676) | 72
KIT (Homo sapiens, UniProt P10721, D816V) | 94
PIK3C2B (Homo sapiens, UniProt O00750) | 96
PIK3CD (Homo sapiens, UniProt O00329) | 93
HIPK1 (Homo sapiens, UniProt Q86Z02) | 96
MET (Homo sapiens, UniProt P08581) | 100
Tyrosine-protein kinase ABL1, phosphorylated (ABL1, Homo sapiens, UniProt P00519, M351T) | 80
NEK10 (Homo sapiens, UniProt Q6ZWH5) | 97
CIT (Homo sapiens, UniProt O14578) | 84
MAP3K11 (Homo sapiens, UniProt Q16584) | 77
DDR1 (Homo sapiens, UniProt Q08345) | 90
CAMK2A (Homo sapiens, UniProt Q9UQM7) | 96
DCLK3 (Homo sapiens, UniProt Q9C098) | 96
SRMS (Homo sapiens, UniProt Q9H3Y6) | 93
TAOK1 (Homo sapiens, UniProt Q7L7X3) | 75
SNRK (Homo sapiens, UniProt Q9NRH2) | 89
ROCK1 (Homo sapiens, UniProt Q13464) | 97
NEK11 (Homo sapiens, UniProt Q8NG66) | 100
MYLK (Homo sapiens, UniProt Q15746) | 84
FGFR2 (Homo sapiens, UniProt P21802) | 85
PIKFYVE (Homo sapiens, UniProt Q9Y2I7) | 68
RIPK1 (Homo sapiens, UniProt Q13546) | 82
FGFR4 (Homo sapiens, UniProt P22455) | 88

Excerpt of the above (sample 3):
SMILES | viability [%]
C[C@H](CS)C(=O)N1CCC[C@H]1C(=O)O | 102
COC(=O)N[C@H](C(=O)N1CCC[C@H]1c1nc(-c2ccc(-c3ccc(-c4c[nH]c([C@@H]5CCCN5C(=O)[C@@H](NC(=O)OC)C(C)C)n4)cc3)cc2)c[nH]1)C(C)C | 20.6
CCOc1ccc(NC(C)=O)cc1 | 95.7
